Measurements collected from several papers.
Each numbered part is a random draw from the data of one study; scales do not carry over between parts. Positions count from the first letter of the parent shown.

Study 1 — method: DHFR PCA, deep sequencing; sample: yeast; added: (+)-ABA 17 µM; baseline: wild-type fitted maximum; reading: higher = stronger binding
Target: ABI1, truncated, D143A, DHFR fusion (Arabidopsis thaliana)
Setting: methotrexate growth selection, single substitutions
Parent: PYL1, truncated, DHFR fusion (Arabidopsis thaliana); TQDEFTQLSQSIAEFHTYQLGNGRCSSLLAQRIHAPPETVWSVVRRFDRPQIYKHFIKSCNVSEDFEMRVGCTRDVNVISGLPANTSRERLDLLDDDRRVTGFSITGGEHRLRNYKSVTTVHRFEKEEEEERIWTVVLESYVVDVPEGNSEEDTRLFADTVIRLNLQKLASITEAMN
| Substitution | relative binding score [%] |
| --- | --- |
| T154P | -2.67 |
| C60D | 3.31 |
| V143C | 77.6 |
| L93E | 60.6 |
| L166E | -8.23 |
| E38H | 57.2 |
| E89H | 17.2 |
| Y53K | 2.05 |
| E38Q | 68.6 |
| V62C | 60.4 |
| L138Y | 41.2 |
| T1E | 85.6 |
| L169Y | -9.23 |
| N177Q | 87.8 |
| T17D | 45.5 |

Study 2 — target: CCND1, cyclin fold, Cln2 fusion (human); method: yeast growth competition, sequencing; sample: yeast; setting: strong parent motif; baseline: not given; reading: higher = stronger binding
Parent: RBL2 docking peptide (human); STTRRRLFVENDS
| Substitution | normalised enrichment score |
| --- | --- |
| D12N | 0.199 |
| T2K | 1.83 |
| R5Y | 0.548 |
| L7M | -0.108 |
| D12T | 0.654 |
| T2E | 1.92 |
| F8H | -0.337 |
| V9F | 1.91 |
| S13C | 1.1 |
| S1G | 0.531 |
| R6V | 1.89 |
| R5M | 1.04 |
| S13Y | 0.882 |

Study 3 — method: protein binding microarray; molecule type: double-stranded DNA, one strand shown; sample: in vitro; tested at: not given; baseline: not given; reading: higher = stronger binding
Target: Histone acetyltransferase KAT6A, both winged helices, GST fusion (KAT6A, Homo sapiens, UniProt Q92794, residues 1-181)
Setting: 8-mer, flanks averaged, mean of 2 arrays, mostly near background
Construct (chain): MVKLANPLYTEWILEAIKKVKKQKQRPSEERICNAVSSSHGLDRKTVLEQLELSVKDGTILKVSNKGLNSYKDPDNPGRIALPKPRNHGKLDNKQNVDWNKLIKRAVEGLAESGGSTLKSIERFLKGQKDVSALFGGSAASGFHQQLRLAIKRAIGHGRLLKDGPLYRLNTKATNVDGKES
| Strand | E-score |
| --- | --- |
| ATGGTTGC | -0.0513 |
| GAGATCGC | 0.0199 |
| GGGCCCTA | -0.0223 |
| CGCTAACA | 0.0879 |
| TGATGTAA | -0.048 |
| GCTACACC | 0.0177 |
| GTATCGGA | 0.121 |
| CTCGAAAA | -0.087 |
| AAGGCTAA | -0.103 |
| CTGGGGTA | -0.0679 |
| GCGGTGTA | 0.175 |
| ATTTCTGG | -0.159 |
| GCAAGGGC | -0.0461 |
| ATCCAAAC | -0.199 |
| AAGTGACA | -0.013 |
| AGCGTGCG | 0.282 |

Study 4 — method: protein-binding microarray; molecule type: double-stranded DNA, one strand shown; sample: in vitro; tested at: 250 nM; setting: 60-bp whole probe; added: salmon DNA 0.4 mg/ml; baseline: random background probes; reading: higher = stronger binding; shared flanks, not repeated: GCCTAGCAC … GTCTTGATTCGCTTGACGCTGCTG
Target: Interferon regulatory factor 5, full length, phosphomimetic (IRF5, Homo sapiens, UniProt Q13568-2, residues 1-514, K96S/S451D/S453D/S456D/S462D)
| Strand | log fluorescence [z-score] |
| --- | --- |
| TTAGGACTGGGGACTGGGATAGTGCTA | -0.399 |
| TTAGATATCAGTATCGAGTAGTGCTAG | 3.96 |
| TTAGATCTCACTCTCGATTAGTGCTAG | 1.07 |
| TTAGAACTGATTCTCGATTAGTGCTAG | 0.866 |
| GACGATTTCTGTTCCGAGACGTGCTAG | 1.83 |
| TCAGCTTTGCCTTTTGCACTGTGCTAG | -0.0178 |
| TCACTTTTAATTTTTAAACTGTGCTAG | 0.98 |
| GACGGTATCGACACTGGGTACGTGCTA | 1.73 |
| TTAGGTATCGGTCTCGGGTAGTGCTAG | 6.19 |
| CTAATATTCTGCTTTGCAATGTGCTAG | 0.513 |
| TTAGGTATCGTTTTCGGTTAGTGCTAG | 9.47 |
| TTAGAACTGGGGTATTGATTAGTGCTA | 0.05 |
| TTAGAACTAAGACTGGATTAGTGCTAG | 0.0972 |
| TTAGGTATCGGTTTCGGTAAGTGCTAG | 10.7 |
| TTAGATTTCACTATCGATTAGTGCTAG | 9.46 |
| GGGAATTTAGAAAATGGAAATGTGCTA | 0.504 |
| TTAGATCTCAGTTGCGATTAGTGCTAG | 1.07 |
| CTGCCTGCTCAGACTGGGGCGTGCTAG | -0.635 |
| GCCGGTTTCGGACTGGGGACGTGCTAG | 4.87 |
| GACGATATAAGTTTCGAGACGTGCTAG | 5.23 |
| CTCATTTTCATTTTGTGTCTGTGCTAG | 2.82 |
| TCATCTCCCAAGTCTTGTACTGTGCTA | 0.0827 |
| TCAGTTTTGTGTCTGGGACTGTGCTAG | 0.391 |
| GACGGTTTCCATTCCCTGACGTGCTAG | 0.93 |
| ATGATGTGTCAAAAATTGCAGTGCTAG | -0.592 |

Study 5 — method: EMSA with sequencing; molecule type: double-stranded DNA, one strand shown; sample: in vitro; tested at: 10 and 20 nM; baseline: negative control set to 0; reading: higher = stronger binding
Target: Hepatocyte nuclear factor 3-alpha (Foxa1, Mus musculus, UniProt P35582, residues 1-468, full length assumed)
Setting: whole designed probe, mean of two concentrations, ends assumed
Shared flanks, not repeated: GTGAGCGGTGCCCATTGATGGGGAAC … TTTCACTGGGATCGTGGGGAC
Construct (chain): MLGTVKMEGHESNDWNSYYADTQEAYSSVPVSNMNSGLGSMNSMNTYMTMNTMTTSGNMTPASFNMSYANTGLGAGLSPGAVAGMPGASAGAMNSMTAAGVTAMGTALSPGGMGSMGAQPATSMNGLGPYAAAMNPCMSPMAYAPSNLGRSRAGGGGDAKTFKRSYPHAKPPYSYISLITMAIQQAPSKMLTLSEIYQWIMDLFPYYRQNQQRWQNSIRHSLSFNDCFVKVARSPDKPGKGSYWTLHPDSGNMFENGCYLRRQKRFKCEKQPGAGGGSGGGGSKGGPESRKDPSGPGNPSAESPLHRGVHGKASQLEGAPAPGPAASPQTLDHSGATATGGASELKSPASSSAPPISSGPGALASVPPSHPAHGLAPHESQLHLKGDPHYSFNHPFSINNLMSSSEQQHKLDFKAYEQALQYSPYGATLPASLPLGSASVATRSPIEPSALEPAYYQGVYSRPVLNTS
| Strand | normalised bound fraction [ratio] |
| --- | --- |
| GCCAGGATTGGGGTGGGTGGGTGAGGAGGAGAGAGCCACAAAATGATAAGAGTGGAGAGCAGTGTGGGGCCCTCCCTTTGAGGGAAAGCCGTTGTTTACATAGGGTAGTAGGCCTTGTTGGCCTGATCAAGAGATGAAGCCATAACTCTTAAAAACCTTCAGAACCAAACGCTGTGTCTGCATCCATCTGTTC | 0.462 |
| AGCAAGGCTTTAAAAGTGAGGTCTTTCAGTTTAGATGCAAAAAGGGTGGTTCTGTTGAGTCAACCCAGCTATTTCACTACATAGTTTCGTAATGTAATCTCCTAGAATGAGGTAGCTGGAGTGCAAATCTAAATGGCTTGTGACAGTTAAGGAAGTACATAGGCAACAGTTACTGGTTTTCTTGATGCAGCTG | -0.0645 |
| ATCTTCCCCCTCTTCCTTGCCCCACCAGCTCACCTTCCCGGGTATATTGGAGATAGGAAATTAATATAAGCCGGCATTCGTTAACCCTCTTCTGGCGCAAACTGCACATTGGTCTGGATGAATCATGGTCCTTTGGCGACGCCAGGCTCCGGGAGAGCAAAGCACCGTGTCAGGGCCATGATCCGGGGTGGCC | 0 |
| TTATGTACTTGGAGCAGTTATAGGCACAGTATTTTATTTCCAAGAAAGCAGTGTAGAGGGGCCAAGTAGCATATAGATGGTATATTTAAAAAGTAATCTTGCAGTAAATACTTAGTACTCTCTGTACAGAATAAATGAAAATCCAACTCATTACAGATTAGAAAAATTATATGTGGATGGAAAGAACAGTTAT | -0.00255 |
| ATCTTCCCCCTCTTCCTTGCCCCACCAGCTCACCTTCCCGGGTTATTTGCAGATAGGAAAATAAATAAAGCCGGCATTCGTTAACCCTCTTCTGGCGCAAACTGCTGTTTGCTCTGGATGAATCATGGTCCTTTGGCGACGCCAGGCTCCGGGAGAGCAAAGCACCGTGTCAGGACTGCCAGCTGGGGTGGCC | 0.346 |
| CTGTTTATACTCCGAAGTTCTTTTCCCTTGATCTGTATAAGACACAATAGATGATAACAGCTGATTGAGAATAGTTAGTCTAGTGTATAAATATGTAATCTTGGGTAAGTATGTATTTAGACAATTTAAAAGTGTGTCTCATTTACCCAATTATAAACAGCTGTCTGAGAGCAATTACGATTTATCATGTAAA | 0.0864 |
| TGTGTTCAGTAAACTACATTTAAAAAAACTAGGAAAGACTATACTTTCAGGGGTCATTTCTATCTGAACAACCTGCTCCTGAATGACTAATGGGTAATTTATGAAATTAAGGCAGAAATAAACAAGTTCTTTGAAAACAGTGAGAACAAAGACACAACGTACCAAAATCTCTGGGACACAGCTAAAGCAGTGT | 0.0551 |
| ATCTTCCCCCTCTTCCTTGCCCCACCAGCTCACCTTCCCGGGTTATTTGCAGATAGGAAAATAAATAAAGCCGGCATTCGTTAACGCAGTTCACGCGCATACTGCTGTTTGCTCTGCATGAATCATGGTCCTTACGCGAGGCGTGGCTCCGGGAGAGCAAAGCACCGTGTCAGGCGCATGATCCGGGGTGGCC | 0.359 |

Single results of other studies
| Substance | target | assay | system | conditions | scale | quantity | value |
| --- | --- | --- | --- | --- | --- | --- | --- |
| PhoQ, residues 284 288 289 292 302 303 SNGLAW | PhoP, residues 12 14 15 18 19 LHATL (Escherichia coli, UniProt P23836) | Sort-seq, item: YFP reporter | E. coli | PhoQ-PhoP variant library, added: 10 µM Mg2+ | baseline: high Mg2+ state, higher = stronger signaling | fold induction | 9.86 |
